Assay results collected from several papers.
Lines come from different studies, so protocols differ. ± marks the error that the study gave.

`C[C@H]1[C@H](C)CC[C@]2(CO)CC[C@]3(C)C(=CC[C@@H]4[C@@]5(C)CCCNC(C)(C)[C@@H]5CC[C@]43C)[C@H]12` gave a selectivity index of < 1 (Human alphaherpesvirus 1; HFF, E-377; baseline: CC50 over EC50).
For `CCC1(O)C([N+](=O)[O-])=NNc2nc(SC)nn21` (centres unmarked), the selectivity index was 2 (coxsackievirus B3; Vero, Nancy; baseline: CC50 over IC50).
For `CSCC[C@H](NC(=O)[C@H](CC(C)C)NC(=O)[C@H](Cc1c[nH]cn1)NC(=O)CNC(=O)[C@@H](NC(=O)[C@H](C)NC(=O)[C@H](Cc1c[nH]c2ccccc12)NC(=O)[C@H](CCC(N)=O)NC(=O)CCCCCNC(=O)CNC(=O)CNC(=O)CNC(=O)CSC(C)=O)C(C)C)C(N)=O` [technetium-99m labelled], the tissue uptake was 0.65 ± 0.13 %ID/g (nude mouse, PC-3 xenograft, spleen; 90 min, added: excess unlabelled conjugate).
`Nc1ccn(C[C@@H](CO)OCP(=O)(O)OCCCS(=O)(=O)CCCCCCCCCCCCCC2CCC2)c(=O)n1` has a selectivity index of 14 (JC polyomavirus; qPCR; COS-7, MAD-4; baseline: CC50 over EC50).
The selectivity index of `CC(=NNC(=N)N)c1nnn(-c2ccc(C#CC3(O)CCCCC3)cc2)c1C` is reported as 17.6 (Clostridioides difficile; WI-38, ATCC BAA-1870; baseline: WI-38 IC50 over MIC).
`CC1(C)NCCC[C@]2(C)[C@H]3C=CC4=C5C[C@@](C)(CO)CC[C@]5(C)CC[C@@]4(C)[C@]3(C)CC[C@@H]12` has a selectivity index of < 3 (Human cytomegalovirus; HFF, AD169; baseline: CC50 over EC50).
`CCOC(=O)c1cnn2c1NN=C([N+](=O)[O-])C2(O)CC` (centres unmarked) has a selectivity index of 2 (coxsackievirus B3; Vero, Nancy; baseline: CC50 over IC50).
`C=C(C)[C@@H]1CC[C@]2(C(=O)NC(CO)Cc3ccccc3)CC[C@]3(C)[C@H](CC[C@@H]4[C@@]5(C)CCCNC(C)(C)[C@@H]5CC[C@]43C)[C@@H]12` (some centres unmarked) has a selectivity index of < 3 (Human cytomegalovirus; HFF, AD169; baseline: CC50 over EC50).
`Nc1ccn(C[C@@H](CO)OCP(=O)(O)OCCCS(=O)(=O)CCCCCCCCCCCCC2CCC2)c(=O)n1` gave a selectivity index of 17 (JC polyomavirus; qPCR; COS-7, MAD-4; baseline: CC50 over EC50).
`CC[C@H](C)[C@@H]1NC(=O)[C@@H]2[C@H](CCN2C(=O)[C@@H](NC(=O)[C@@H](C)NC)[C@@H](C)CC)Oc2ccc(OC)c(c2)/C=C\NC1=O` gave a selectivity index of 47.1 ± 0.49 (porcine epidemic diarrhea virus; Vero cells; baseline: CC50 over EC50).
`N=C(N)NCCC[C@@H]1NC(=O)[C@H](CCCCNC(=O)CCOCCOCCOCCOCCNC(=O)CN2CCN(CC(=O)O)CCN(CC(=O)O)CCN(CC(=O)O)CC2)NC(=O)[C@@H](Cc2ccccc2)NC(=O)[C@H](CC(=O)O)NC(=O)CNC1=O` [indium-111 labelled] gave a tissue uptake of 0.09 ± 0.01 %ID/g (female athymic nude mice, heart; intravenous, 3 µCi, 72 h, U-87 MG glioma xenograft).
For `CCCC[C@H](NC(=O)CNC(=O)CNC(=O)c1ccc(NN)nc1)C(=O)N[C@H]1CC(=O)NCCCC[C@@H](C(N)=O)NC(=O)[C@H](Cc2c[nH]c3ccccc23)NC(=O)[C@H](CCCNC(=N)N)NC(=O)[C@@H](Cc2ccccc2)NC(=O)[C@H](Cc2c[nH]cn2)NC1=O` [technetium-99m labelled], the tissue uptake was 11.2 ± 1.68 %ID/g (C57 mouse, B16/F1 melanoma-bearing, kidneys; intravenous, 0.5 h).
With `N=C(N)NCCC[C@@H]1NC(=O)[C@H](CCCCNC(=O)CC[C@H](NC(=O)CCOCCOCCOCCOCCNC(=O)CC[C@H](NC(=O)CN2CCN(CC(=O)O)CCN(CC(=O)O)CCN(CC(=O)O)CC2)C(=O)NCCOCCOCCOCCOCCC(=O)N[C@@H](CCC(=O)NCCCC[C@@H]2NC(=O)[C@@H](Cc3ccccc3)NC(=O)[C@H](CC(=O)O)NC(=O)CNC(=O)[C@H](CCCNC(=N)N)NC2=O)C(=O)NCCCC[C@@H]2NC(=O)[C@@H](Cc3ccccc3)NC(=O)[C@H](CC(=O)O)NC(=O)CNC(=O)[C@H](CCCNC(=N)N)NC2=O)C(=O)NCCCC[C@@H]2NC(=O)[C@@H](Cc3ccccc3)NC(=O)[C@H](CC(=O)O)NC(=O)CNC(=O)[C@H](CCCNC(=N)N)NC2=O)NC(=O)[C@@H](Cc2ccccc2)NC(=O)[C@H](CC(=O)O)NC(=O)CNC1=O` [indium-111 labelled] the tissue uptake was 1.12 ± 0.2 %ID/g (female athymic nude mice, heart; intravenous, 3 µCi, 0.5 h, U-87 MG glioma xenograft).
The selectivity index of `CCC1(O)C([N+](=O)[O-])=NNc2ncnn21` (centres unmarked) is reported as 2 (coxsackievirus B3; Vero, Nancy; baseline: CC50 over IC50).
